# Published values of several laboratories.
# Compare with care: the assays were run in different laboratories.
# Sequence of UniProt Q9UBE8 (whole entry, looked up): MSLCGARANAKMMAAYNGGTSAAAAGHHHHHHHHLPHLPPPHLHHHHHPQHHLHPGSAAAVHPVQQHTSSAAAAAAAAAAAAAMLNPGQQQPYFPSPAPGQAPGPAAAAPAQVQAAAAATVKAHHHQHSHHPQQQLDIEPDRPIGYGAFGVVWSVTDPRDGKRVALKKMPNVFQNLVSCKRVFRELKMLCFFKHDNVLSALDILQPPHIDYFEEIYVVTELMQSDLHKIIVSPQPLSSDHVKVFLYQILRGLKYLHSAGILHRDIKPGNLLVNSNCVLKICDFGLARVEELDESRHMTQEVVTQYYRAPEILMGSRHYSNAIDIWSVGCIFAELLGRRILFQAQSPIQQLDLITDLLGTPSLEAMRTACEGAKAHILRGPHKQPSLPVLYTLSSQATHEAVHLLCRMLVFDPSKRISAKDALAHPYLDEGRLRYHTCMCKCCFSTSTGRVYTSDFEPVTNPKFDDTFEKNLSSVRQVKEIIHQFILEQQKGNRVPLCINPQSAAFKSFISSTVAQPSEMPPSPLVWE
SMILES,target or system,assay,test system,conditions,how to read,quantity,result
C[C@@H](O)[C@H](NC(=O)[C@H](Cc1c[nH]c2ccccc12)NC(=O)[C@H](Cc1c[nH]c2ccccc12)NC(=O)[C@H](Cc1c[nH]c2ccccc12)NC(=O)[C@@H](NC(=O)[C@H](Cc1c[nH]c2ccccc12)NC(=O)[C@H](CCCNC(=N)N)NC(=O)[C@@H](N)CCCNC(=N)N)[C@@H](C)O)C(=O)N[C@@H](Cc1c[nH]c2ccccc12)C(=O)N[C@@H](CCCNC(=N)N)C(=O)N[C@@H](CCCNC(=N)N)C(N)=O,Lacticaseibacillus rhamnosus,,"1.038, probiotic strain","24 h, 37 °C, tested up to 128 µM",,MIC,128 µM
CC1(C)SC2C(NC(=O)C(NC(=O)C3=C(O)C4CCCN4C3=O)c3ccccc3)C(=O)N2C1C(=O)O (stereo not shown),Escherichia coli,broth microdilution,Keio mutant JW0587-1,"18 h, enterobactin-related gene",,MIC,25 µg/mL
N=C(N)NCCC[C@H](NC(=O)CN)C(=O)N[C@@H](Cc1c[nH]c2ccccc12)C(=O)N[C@@H](CCCNC(=N)N)C(=O)N[C@@H](Cc1c[nH]c2ccccc12)C(=O)N[C@@H](Cc1c[nH]c2ccccc12)C(=O)N[C@@H](Cc1c[nH]c2ccccc12)C(=O)N[C@@H](CCCNC(=N)N)C(=O)N[C@@H](Cc1c[nH]c2ccccc12)C(=O)N[C@@H](CCCNC(=N)N)C(=O)N[C@@H](Cc1c[nH]c2ccccc12)C(N)=O,Candida albicans,broth microdilution,"CGMCC 2.209, RPMI 1640-MOPS","48 h, 30 °C, together with: MgCl2 1 mM",,MIC,4 µM
Oc1c(Br)cc(Br)cc1-c1[nH]c(Br)c(Br)c1Br,Listeria ivanovii,,BAA-139,,,MIC,0.13 µM
CC(C)C[C@@H](NC(=O)[C@H](C)NC(=O)CNC(=O)[C@@H](NC=O)C(C)C)C(=O)N[C@@H](C)C(=O)N[C@@H](C(=O)N[C@H](C(=O)N[C@@H](C(=O)N[C@@H](Cc1c[nH]c2ccccc12)C(=O)N[C@H](CC(C)C)C(=O)N[C@@H](Cc1cccc2[nH]ccc12)C(=O)N[C@H](CC(C)C)C(=O)N[C@@H](Cc1c[nH]c2ccccc12)C(=O)N[C@H](CC(C)C)C(=O)N[C@@H](Cc1c[nH]c2ccccc12)C(=O)NCCO)C(C)C)C(C)C)C(C)C,Streptococcus pyogenes,broth microdilution,SSI-9,,,MIC,0.017 µM
CC1(C)SC2C(NC(=O)C(NC(=O)C3=C(O)C(Cc4ccc(O)cc4)NC3=O)c3ccccc3)C(=O)N2C1C(=O)O (stereo not shown),Escherichia coli,broth microdilution,Keio mutant JW0146-2,"18 h, ferric hydroxamate uptake gene",,MIC,50 µg/mL
COc1cc2c(Oc3ccc4[nH]c(C)cc4c3F)ccnc2cc1OCC1(N)CC1,,,paediatric recurrent refractory sarcoma,10 mg,,grade 3 weight loss,0%
CC[C@H](C)[C@H](NC(=O)[C@H](CC(C)C)NC(=O)[C@H](CCCCN)NC(=O)[C@@H](NC(=O)[C@H](C)NC(=O)[C@H](CCC(=O)O)NC(=O)[C@H](Cc1c[nH]cn1)NC(=O)[C@@H](NC(=O)[C@H](CCCCN)NC(=O)[C@H](CCC(N)=O)NC(=O)[C@H](Cc1ccccc1)NC(=O)[C@@H](N)C(C)C)[C@@H](C)CC)[C@@H](C)CC)C(N)=O,Gram-positive and Gram-negative bacteria,,,geometric mean,,MIC,256 µM
CC[C@H](C)[C@H](NC(=O)[C@H](CCCCN)NC(=O)[C@H](CCCCN)NC(=O)[C@H](Cc1ccccc1)NC(=O)[C@@H](NC(=O)[C@@H](NC(=O)[C@H](CCCNC(=N)N)NC(=O)[C@H](Cc1ccccc1)NC(=O)[C@@H](NC(=O)[C@H](CCCCN)NC(=O)[C@H](CCCCN)NC(=O)[C@@H](N)CCSC)[C@@H](C)CC)C(C)C)[C@@H](C)CC)C(=O)N[C@@H](CC(C)C)C(=O)N[C@@H](CCCCN)C(=O)N[C@@H](CCCNC(=N)N)C(=O)N[C@@H](CC(C)C)C(=O)N[C@H](C(=O)N[C@H](C(=O)O)C(C)C)[C@@H](C)CC,Staphylococcus aureus,broth microdilution,GU-1 MRSA,together with: 4.5 mM KCl,,MIC,4 µg/mL
Nc1ncnc2c1ncn2[C@@H]1O[C@@H]2COP(=O)(O)O[C@H]3[C@@H](O)[C@H](n4cnc5c(=O)[nH]cnc54)O[C@@H]3COP(=O)(O)O[C@H]2[C@H]1O,Zika virus,"downregulated Reactome pathway, RNA sequencing, item: Nervous system development (R-HSA-9675108)",HFF-1,,relative to: ZIKV-infected untreated,fold enrichment,2.48
CC(C)[C@H](NC(=O)[C@H](CCCNC(=N)N)NC(=O)[C@H](Cc1c[nH]c2ccccc12)NC(=O)[C@H](CCCNC(=N)N)NC(=O)[C@H](Cc1c[nH]c2ccccc12)NC(=O)[C@H](Cc1c[nH]c2ccccc12)NC(=O)[C@H](Cc1c[nH]c2ccccc12)NC(=O)[C@H](CCCNC(=N)N)NC(=O)[C@H](Cc1c[nH]c2ccccc12)NC(=O)[C@@H](N)CCCNC(=N)N)C(N)=O,Candida albicans,broth microdilution,"CGMCC 2.209, RPMI 1640-MOPS","48 h, 30 °C, together with: KCl 4.5 mM",,MIC,16 µM
CC[C@H](C)[C@@H]1NC(=O)[C@@H]2CCCN2C(=O)[C@H](CC(C)C)NC(=O)[C@H](CC(C)C)NC(=O)CNC(=O)[C@@H](NC(=O)[C@@H](NC(=O)[C@H](CC(=O)O)NC(=O)CNC(=O)[C@@H](NC(=O)[C@H](C)NC(=O)CNC(=O)[C@H](CCCCN)NC(=O)[C@H](CC(C)C)NC(=O)[C@H](CC(C)C)NC(=O)[C@H](CCCCN)NC(=O)CNC(=O)[C@@H](NC(=O)[C@@H](N)CC(C)C)C(C)C)C(C)C)C(C)C)CSSC[C@@H](C(=O)O)NC1=O,,"RNA-seq, item: Pilra mRNA","mouse traumatic brain injury, frontal cortex and hippocampus",dose not given,relative to: TBI plus compound vs TBI,log2 fold change,-2.96
N=C(N)NCCC[C@H](NC(=O)[C@H](Cc1c[nH]c2ccccc12)NC(=O)[C@H](CCCNC(=N)N)NC(=O)[C@H](Cc1c[nH]c2ccccc12)NC(=O)[C@H](Cc1c[nH]c2ccccc12)NC(=O)[C@H](Cc1c[nH]c2ccccc12)NC(=O)[C@H](CCCNC(=N)N)NC(=O)[C@H](Cc1c[nH]c2ccccc12)NC(=O)[C@H](CCCNC(=N)N)NC(=O)CN)C(N)=O,Candida albicans,broth microdilution,"17546, RPMI 1640-MOPS","48 h, 30 °C",,MIC,8 µM
COc1cc(Nc2ncc(F)c(Nc3ccc4c(n3)NC(=O)C(C)(C)O4)n2)cc(OC)c1OC,"PPP3CA (Homo sapiens, UniProt Q08209)","phosphatase activity, inhibitor",,,,IC50,> 10 µM
COc1cc(CCC[P+](c2ccccc2)(c2ccccc2)c2ccccc2)c(OC)c2c1OCO2.[I-],OVCAR-5,SRB,,,,TGI,-4.43 log M
C[C@H]1CN(c2n[nH]c3nc(N[C@H]4CC[C@H](NS(=O)(=O)CCC(F)(F)F)CC4)ncc23)CCO1,"NLK (Homo sapiens, UniProt Q9UBE8)",Kinobeads competition,"HEK293, K562, placenta lysate","0.032 µM, unit not given",relative to: vehicle,remaining binding,0.94
COc1c(CCC[P+](c2ccccc2)(c2ccccc2)c2ccccc2)cc2c(c1OC)OCO2.[I-],SW-620,SRB,,,,TGI,-4.96 log M
CC[C@H](C)[C@H](NC(=O)[C@H](Cc1ccccc1)NC(=O)[C@H](CCC(=O)O)NC(=O)[C@H](CCCNC(=N)N)NC(=O)[C@H](C)NC(=O)[C@H](C)NC(=O)[C@H](CCC(N)=O)NC(=O)[C@H](CCC(=O)O)NC(=O)[C@H](CCC(=O)O)NC(=O)[C@H](CC(C)C)NC(=O)[C@H](Cc1ccc(O)cc1)NC(=O)[C@H](CO)NC(=O)[C@H](CO)NC(=O)[C@@H](NC(=O)[C@H](CC(=O)O)NC(=O)[C@H](CO)NC(=O)[C@@H](NC(=O)[C@H](Cc1ccccc1)NC(=O)[C@@H](NC(=O)CNC(=O)[C@H](CCC(=O)O)NC(=O)[C@H](C)NC(=O)CCc1c[nH]cn1)[C@@H](C)O)[C@@H](C)O)C(C)C)C(=O)N[C@@H](C)C(=O)N[C@@H](Cc1c[nH]c2ccccc12)C(=O)N[C@@H](CC(C)C)C(=O)N[C@H](C(=O)N[C@@H](CCCNC(=N)N)C(=O)NCC(=O)N[C@@H](CCCNC(=N)N)C(=O)N[C@@H](CCCCNC(=O)COCCOCCNC(=O)COCCOCCNC(=O)CC[C@H](NC(=O)CCCCCCCCCCCCCCCCC(=O)O)C(=O)O)C(=O)NCC(=O)NCC(=O)N[C@@H](CO)C(=O)N[C@@H](CCCCNc1c(NCCCCCN(O)C(=O)CCC(=O)NCCCCCN(O)C(=O)CCC(=O)NCCCCCN(O)C(C)=O)c(=O)c1=O)C(=O)O)C(C)C [zirconium-89 labelled],,ex vivo gamma counting,"rat, knee","subcutaneous, 3 nmol/kg, 168 h, together with: [89Zr]-labelled peptide",,tissue uptake,0.22 %ID/g
CC1(C)SC2C(NC(=O)C(NC(=O)C3=C(O)C(c4ccccc4)NC3=O)c3ccccc3)C(=O)N2C1C(=O)O (stereo not shown),Escherichia coli,broth microdilution,"isolate IU 356 A, KPC-3, VIM-1, TEM",together with: clavulanic acid 6 µg/mL,,MIC,> 200 µg/mL
N=C(N)NCCC[C@H](NC(=O)CN)C(=O)N[C@@H](Cc1c[nH]c2ccccc12)C(=O)N[C@@H](CCCNC(=N)N)C(=O)N[C@@H](Cc1c[nH]c2ccccc12)C(=O)N[C@@H](Cc1c[nH]c2ccccc12)C(=O)N[C@@H](Cc1c[nH]c2ccccc12)C(=O)N[C@@H](CCCNC(=N)N)C(=O)N[C@@H](Cc1c[nH]c2ccccc12)C(=O)N[C@@H](CCCNC(=N)N)C(=O)N[C@@H](Cc1ccccc1)C(N)=O,Candida albicans,broth microdilution,"CGMCC 2.209, RPMI 1640-MOPS","48 h, 30 °C",,MIC,8 µM
CCN1CCN(C(=O)N[C@@H](C(=O)N[C@@H]2C(=O)N3[C@@H]2SC(C)(C)[C@@H]3C(=O)O)c2ccccc2)C(=O)C1=O,Escherichia coli,broth microdilution,JW0790-2 fiu deletion mutant,ferric iron uptake gene,,MIC,3.12 µg/mL
N=C(N)NCCC[C@H](NC(=O)CCCCCNC(=O)[C@H](CCCNC(=N)N)NC(=O)[C@H](CCCNC(=N)N)NC(=O)CCCCCNC(=O)[C@H](CCCNC(=N)N)NC(=O)[C@H](CCCNC(=N)N)NC(=O)CCCCCNC(=O)[C@H](CCCNC(=N)N)NC(=O)[C@H](CCCNC(=N)N)NC(=O)CCCCCNC(=O)[C@@H](N)CCCNC(=N)N)C(=O)NCCCCCC(=O)NCCC(=O)O,Escherichia coli,broth microdilution,"ATCC 25922, Mueller-Hinton broth",,,MIC,96 µM
CC1(C)SC2C(NC(=O)C(NC(=O)C3=C(O)CN(c4ccccc4)C3=O)c3ccccc3)C(=O)N2C1C(=O)O (stereo not shown),Escherichia coli,broth microdilution,Keio mutant JW5195-1,18 h,,MIC,25 µg/mL
C[C@H](NC(=O)[C@H](CCCNC(=N)N)NC(=O)[C@H](Cc1c[nH]c2ccccc12)NC(=O)[C@H](CCCNC(=N)N)NC(=O)[C@H](Cc1c[nH]c2ccccc12)NC(=O)[C@H](Cc1c[nH]c2ccccc12)NC(=O)[C@H](Cc1c[nH]c2ccccc12)NC(=O)[C@H](CCCNC(=N)N)NC(=O)[C@H](Cc1c[nH]c2ccccc12)NC(=O)[C@H](CCCNC(=N)N)NC(=O)CN)C(N)=O,Candida albicans,broth microdilution,"SP3903, RPMI 1640-MOPS","48 h, 30 °C",,MIC,8 µM
N=C(N)c1ccc(OCc2cccc(COc3ccc(C(=N)N)cc3)c2)cc1,Escherichia coli,,BW25113 mcr-1,"in combination, checkerboard, together with: rifampicin",,MIC,25 µg/mL

# For quick reference, copied from above:
SMILES,target or system,assay,test system,conditions,how to read,quantity,result
N=C(N)NCCC[C@H](NC(=O)CCCCCNC(=O)[C@H](CCCNC(=N)N)NC(=O)[C@H](CCCNC(=N)N)NC(=O)CCCCCNC(=O)[C@H](CCCNC(=N)N)NC(=O)[C@H](CCCNC(=N)N)NC(=O)CCCCCNC(=O)[C@H](CCCNC(=N)N)NC(=O)[C@H](CCCNC(=N)N)NC(=O)CCCCCNC(=O)[C@@H](N)CCCNC(=N)N)C(=O)NCCCCCC(=O)NCCC(=O)O,Escherichia coli,broth microdilution,"ATCC 25922, Mueller-Hinton broth",,,MIC,96 µM
CC1(C)SC2C(NC(=O)C(NC(=O)C3=C(O)CN(c4ccccc4)C3=O)c3ccccc3)C(=O)N2C1C(=O)O (stereo not shown),Escherichia coli,broth microdilution,Keio mutant JW5195-1,18 h,,MIC,25 µg/mL
